Measurements of several laboratories.
Several values in a cell are separate wells, animals, samples, runs or records. ± gives the spread as reported.

Compound	method	host	sample	route	dose	time	plasma concentration
O=Cc1cc2c(cc1F)C(=O)N(C1CCC(=O)NC1=O)C2 (stereo not drawn)	–	CD-1 mice	–	intravenous	1 mg/kg	24 h	not detected
COc1cc2c(Nc3ccc(Cl)c(Cl)c3F)ncnc2cc1OC[C@@H]1C[C@@H]2CN(C)C[C@@H]2C1	–	FVB Mdr1a/b(-/-)Bcrp1(-/-) triple knockout mice, both sexes	plasma	intraperitoneal infusion (osmotic pump)	10 mg/mL at 1 µL/h	48 h	1220 ng/g
Cc1cc([C@@H](C)Nc2ccccc2C(=O)O)c2nc(N3CCC(F)(F)CC3)c(C#N)c(=O)n2c1	–	NOD SCID mice, HCC1954 xenograft	–	oral	300 mg/kg once daily	1 h	432 ng/mL
Cc1cc2sc(N)nc2c2cccnc12	LC-MS	BALB/c mice, female	–	intraperitoneal	30 mg/kg	24 h	10 ± 10 ng/mL
CCN1CCN(Cc2ccc(NC(=O)c3ccc(C)c(NC(=O)c4cncc(-c5cccs5)c4)c3)cc2C(F)(F)F)CC1	LC-MS/MS	C57BL/6 mice	plasma	intraperitoneal	15 mg/kg	24 h	not detected
O=[N+]([O-])c1ccc(-c2ccc(O)cc2)c2cccnc12	–	male ICR mice	plasma	intravenous	1 mg/kg	0.0833 h	510 ng/mL
NCc1cc2c(cc1F)C(=O)N(C1CCC(=O)NC1=O)C2 (stereo not drawn)	–	CD-1 mice	–	intravenous	1 mg/kg	24 h	not detected
COc1nc(-c2cc(C)c(N[C@@H](C)c3c(F)cc(F)cc3F)nn2)ccc1-n1cnc(C)c1	–	C57BL/6J mice, male	plasma	oral	50 mg/kg daily for 9 days	4 h after last dose	15800 ng/mL
CC1(C)NC(=O)N(c2ccc(F)c(C(C)(F)F)c2)C1=O	–	male Swiss outbred mice	plasma	oral	100 mg/kg	48 h	22100 ± 1210 ng/mL
COc1nc(-c2cc(C)c(N[C@@H](C)c3cc(F)cc(F)c3)nn2)ccc1-n1cnc(C)c1	–	C57BL/6J mice, male	plasma	oral	10 mg/kg daily for 9 days	4 h after last dose	5120 ng/mL
O=C1CCC(N2Cc3cc(CO)c(F)cc3C2=O)C(=O)N1 (stereo not drawn)	–	CD-1 mice	–	intravenous	1 mg/kg	24 h	not detected
O=S(=O)(c1ccc(-c2ccc3nccc(Nc4ccncn4)c3c2)cc1)N1CCOCC1	–	female BALB/c mice	plasma	intraperitoneal	10 mg/kg	8 h	1.07 ng/mL and 2.85 ng/mL and 2.56 ng/mL
COc1cc(F)c([C@@H]2CNC(=O)[C@H]2NC(=O)Nc2ccccc2)c(F)c1	–	C57BL/6 mice, LPS challenge	plasma	oral	0.03 mg/kg	1.5 h post dose	2 ± 1 nM
CN(CCCNC(=O)c1cccc(C(=O)O)c1)CCCNC(=O)c1cc(NC(=O)c2cc(NC(=O)c3cc(NC(=O)c4cc(NC(=O)[C@H](N)CCNC(=O)c5cc(NC(=O)c6cc(NC(=O)c7nc(NC(=O)c8nccn8C)cn7C)cn6C)cn5C)cn4C)cn3C)cn2C)cn1C	HPLC	C57BL/6 mice	–	intraperitoneal	120 nmol	1.5 h	13000 to 14000 nM
CC[C@H](C)[C@H](NC(=O)[C@H](CCC(=O)O)NC(=O)[C@H](CO)NC(=O)[C@@H](NC(=O)[C@@H](N)CO)C(C)C)C(=O)N[C@@H](CCC(N)=O)C(=O)N[C@@H](CC(C)C)C(=O)N[C@@H](CCSC)C(=O)N[C@@H](Cc1cnc[nH]1)C(=O)N[C@@H](CC(N)=O)C(=O)N[C@@H](CC(C)C)C(=O)NCC(=O)N[C@@H](CCCCN)C(=O)N[C@@H](Cc1cnc[nH]1)C(=O)N[C@@H](CC(C)C)C(=O)N[C@@H](CC(N)=O)C(=O)N[C@@H](CO)C(=O)N[C@@H](CCSC)C(=O)N[C@@H](CCC(=O)O)C(=O)N[C@@H](CCCNC(=N)N)C(=O)N[C@H](C(=O)N[C@@H](CCC(=O)O)C(=O)N[C@@H](Cc1c[nH]c2ccccc12)C(=O)N[C@@H](CC(C)C)C(=O)N[C@@H](CCCNC(=N)N)C(=O)N[C@@H](CCCCN)C(=O)N[C@@H](CCCCN)C(=O)N[C@@H](CC(C)C)C(=O)N[C@@H](CCC(N)=O)C(=O)N[C@@H](CC(=O)O)C(=O)N[C@H](C(=O)N[C@@H](Cc1cnc[nH]1)C(=O)N[C@@H](CC(N)=O)C(=O)N[C@@H](Cc1ccccc1)C(N)=O)C(C)C)C(C)C	ELISA	female CD-1 mice	blood plasma	subcutaneous	10 nmol/kg	1 h	0.117 nM

For quick reference, copied from above:
Compound	method	host	sample	route	dose	time	plasma concentration
COc1cc2c(Nc3ccc(Cl)c(Cl)c3F)ncnc2cc1OC[C@@H]1C[C@@H]2CN(C)C[C@@H]2C1	–	FVB Mdr1a/b(-/-)Bcrp1(-/-) triple knockout mice, both sexes	plasma	intraperitoneal infusion (osmotic pump)	10 mg/mL at 1 µL/h	48 h	1220 ng/g
Cc1cc([C@@H](C)Nc2ccccc2C(=O)O)c2nc(N3CCC(F)(F)CC3)c(C#N)c(=O)n2c1	–	NOD SCID mice, HCC1954 xenograft	–	oral	300 mg/kg once daily	1 h	432 ng/mL
